Results pooled from the literature.
Parts stem from different laboratories: compare values within a part only. Substitutions count along the parent as printed.

Set 1
Target: CCNB3, cyclin fold, Cln2 fusion (human)
Technique: yeast growth competition, sequencing
Sample: yeast
Notes: weak parent motif
Reference: not given
Reading: higher = stronger binding
Starting sequence: RB1 docking peptide (human); PKPLKKLRFDIEG
For `P1G`, “normalised enrichment score” read 0.45.
`K6P`: “normalised enrichment score” 0.497.
`K5P`: “normalised enrichment score” 0.369.
Under “normalised enrichment score”, `F9P` is recorded as 0.0182.
For `I11D`, “normalised enrichment score” read -0.0916.

Set 2
Target: Histone acetyltransferase KAT6A, both winged helices, GST fusion (KAT6A, Homo sapiens, UniProt Q92794, residues 1-181)
Technique: protein binding microarray
Molecule type: double-stranded DNA, one strand shown
Sample: in vitro
Tested at: not given
Notes: 8-mer, flanks averaged, mean of 2 arrays, mostly near background
Reference: not given
Reading: higher = stronger binding
Construct (chain): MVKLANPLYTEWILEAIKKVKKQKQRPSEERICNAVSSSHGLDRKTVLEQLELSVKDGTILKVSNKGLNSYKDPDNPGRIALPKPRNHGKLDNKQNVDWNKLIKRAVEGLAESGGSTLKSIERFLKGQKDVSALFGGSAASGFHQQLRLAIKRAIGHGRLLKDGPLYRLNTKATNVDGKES
`ACCCTATA` has an E-score of -0.163.
`ATTAGCGG` has an E-score of 0.213.
`ACGAGTAA` gave an E-score of -0.0375.
The E-score of `CCTTCAAG` is reported as -0.134.
The E-score of `CACGGTCC` is reported as 0.0611.
`CAGTTTGC` gave an E-score of 0.0812.
`TCACCAGA` has an E-score of -0.0865.

Set 3
Target: Max-binding protein MNT, bHLH-zipper, MAX partner unstated (MNT, Homo sapiens, UniProt Q99583, residues 220-300)
Technique: protein-binding microarray
Molecule type: double-stranded DNA, one strand shown
Sample: in vitro
Tested at: not given
Notes: k-mer, scored over probes, only values ≥0.25
Reading: higher = stronger binding
Construct (chain): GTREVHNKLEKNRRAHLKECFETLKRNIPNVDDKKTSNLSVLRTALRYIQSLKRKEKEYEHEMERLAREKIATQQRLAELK
The E-score of `GGCGCCAC` is reported as 0.282.
The E-score of `GCGCCCCA` is reported as 0.258.
`ATCGCACG` has an E-score of 0.308.
`GCATGGGC` gave an E-score of 0.312.
The E-score of `ATGTGGGG` is reported as 0.307.
The E-score of `AGGGGTGG` is reported as 0.31.

Further values, each from its own experiment
For `PhoQ, residues 284 288 289 292 302 303 SSCLAV`, the fold induction was 8.04 (PhoP, residues 12 14 15 18 19 STWGI (Escherichia coli, UniProt P23836); Sort-seq, item: YFP reporter; E. coli; PhoQ-PhoP variant library, together with: 10 µM Mg2+; reference: high Mg2+ state, higher = stronger signaling).

Some of these lines once more (set 3):
The E-score of `ATGTGGGG` is reported as 0.307.
`ATCGCACG` has an E-score of 0.308.
